Measurements gathered from unrelated publications.
Each line is one published result; not all experiments were run side by side. Numbers after ± are the reported error.

SMILES	test system	conditions	half-life
O=C(NC1CC=C(c2cc3c(Nc4cc5ncsc5cc4F)ncnc3s2)CC1)NC1CCCCC1 (stereo not shown)	human liver microsomes	1 µM	> 120 min
Cc1c(-c2ccccc2)nn2c(=O)cc(-c3cccc(-c4nnn[nH]4)c3)[nH]c12	mouse liver microsomes	1 µM	196 min
Cc1n[nH]c(C)c1CCOC(=O)c1cccc2c1oc(=O)n2C	mouse plasma		> 150 min
COc1ccc2c(c1)CN(C(=O)OC(C(F)(F)F)C(F)(F)F)C2	rat liver microsomes	added: NADPH	6 min
O=C(CC1Cc2ccccc2C1)N[C@H](CN1CC[C@@H](F)C1)[C@H](O)c1ccc2c(c1)OCCO2	mouse liver microsomes	1 µM	1.4 min
Cc1ccccc1OCCCSCc1nc2ccccc2[nH]1	CD-1 mouse liver microsomes 0.5 mg/mL	10 µM	6.13 min
CSc1cc(NC(=O)c2ccccn2)ccc1F	rat liver microsomes		5.73 min
CCCCNC(=O)NC1CC=C(c2cc3c(Nc4cc5ncsc5cc4F)ncnc3s2)CC1 (stereo not shown)	human liver microsomes	1 µM	> 120 min
COc1ccc(CC(=O)OCc2ccc(-n3cccn3)cc2)cc1F	PBS		> 300 min
COc1cccc(-c2cc(-n3nncc3-c3ccc(C(F)(F)F)cc3)ccc2OC)c1	human liver microsomes		82.2 ± 9.6 min
O=C(O)c1cccc(-c2nc(-c3ccccc3F)c3sccn23)c1	human liver microsomes	1 µM	45.9 min
CCOc1ccccc1Nc1nnc(SCC(=O)Nc2cc(F)ccc2F)s1	human plasma		> 120 min
C#CCCCN1C(=O)C2(CN2[S+]([O-])C(C)(C)C)c2ccccc21 (stereo not shown)	glutathione		59.4 min

A few entries again:
SMILES	test system	conditions	half-life
COc1ccc2c(c1)CN(C(=O)OC(C(F)(F)F)C(F)(F)F)C2	rat liver microsomes	added: NADPH	6 min
O=C(CC1Cc2ccccc2C1)N[C@H](CN1CC[C@@H](F)C1)[C@H](O)c1ccc2c(c1)OCCO2	mouse liver microsomes	1 µM	1.4 min
